Measured values pooled from the literature.
Numbered parts are unrelated; each lists some results of a single study. Changes are numbered by the printed parent chain.

Study 1 — method: DHFR PCA, deep sequencing; sample: yeast; with: (+)-ABA 0 µM; baseline: wild-type fitted maximum; direction: higher = stronger binding
Target: ABI1, truncated, D143A, DHFR fusion (Arabidopsis thaliana)
Setting: methotrexate growth selection, single substitutions
Starting sequence: PYL1, truncated, DHFR fusion (Arabidopsis thaliana); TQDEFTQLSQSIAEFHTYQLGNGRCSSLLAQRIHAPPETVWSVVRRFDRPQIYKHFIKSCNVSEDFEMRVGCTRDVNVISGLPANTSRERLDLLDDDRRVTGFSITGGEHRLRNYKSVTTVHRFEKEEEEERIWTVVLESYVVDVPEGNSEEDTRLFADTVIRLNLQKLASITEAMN; partner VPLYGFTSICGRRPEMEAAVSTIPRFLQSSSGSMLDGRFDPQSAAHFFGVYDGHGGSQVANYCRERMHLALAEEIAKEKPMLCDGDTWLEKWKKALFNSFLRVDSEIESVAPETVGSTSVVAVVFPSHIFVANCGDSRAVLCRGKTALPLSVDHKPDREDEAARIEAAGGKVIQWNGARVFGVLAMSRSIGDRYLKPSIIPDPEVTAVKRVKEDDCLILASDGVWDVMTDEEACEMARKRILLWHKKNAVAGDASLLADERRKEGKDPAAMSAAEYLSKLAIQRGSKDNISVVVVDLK
| Variant | relative binding score |
| --- | --- |
| V44C | -0.883% |
| T17K | 5.46% |
| Y18D | -1.18% |
| L166Q | 6.09% |
| G81A | 13.9% |
| Y18N | -0.207% |
| M68F | 4.39% |
| W41F | 0.762% |
| A175R | 25.7% |
| Q31A | 2.51% |
| V118E | -6.8% |
| A175I | -2.98% |
| A13P | -7.7% |
| D75P | 0.458% |
| D153K | -4.89% |
| T154L | -6.74% |
| F124S | 4.51% |
| D48M | -0.518% |
| E14W | -0.305% |
| K58M | -6.92% |
| S59I | 3.64% |
| H110D | 48.2% |
| I12C | 1.01% |
| I57G | 0.219% |
| I162E | 4.34% |

Study 2 — organism: Saccharomyces cerevisiae; effect on: cell growth; method: competitive growth deep sequencing; molecule type: peptide; setting: peptide tiling library; with: cyclin F-Cln2 fusion; direction: direction not given
| Sequence | enrichment score |
| --- | --- |
| RVSGLLSWTLSRVLWL | 0.323 |
| SFLIEYEFLIPPSLKP | 0.448 |
| PLRKAKRARLCSSSSS | 2.02 |
| PFSENVSAVQKLDFSD | 1.84 |
| SDSTVTKLDFDLEP | 0.629 |
| ESSTVSEEDYFSSHRD | 0.656 |
| SPREGHMMDALYAQVK | 0.344 |
| LKGRRLVFDN | 4.24 |
| VLLKRLQDVVSERANH | -0.455 |
| GQLVIPLDELTLDTSF | 2.2 |
| LAKRALKYTD | 0.829 |
| QDYERRLLRQIVIQNE | -0.578 |
| RDLFDCDFGDLTPLDF | 1.4 |

Study 3 — method: RNA Bind-n-Seq; molecule type: RNA; sample: in vitro; concentration: not given; setting: RNA with constant flanks, ends assumed; baseline: input RNA pool; direction: higher = stronger binding
Target: RING finger protein unkempt homolog, zinc fingers 1-6, GST-SBP tag (UNK, Homo sapiens, UniProt Q9C0B0, residues 30-357)
Constant ends, left off below: GGGAGUUCUACAGUCCGACGAUC … CAACAGAGGAUUGAGCAUCA
Residues (chain): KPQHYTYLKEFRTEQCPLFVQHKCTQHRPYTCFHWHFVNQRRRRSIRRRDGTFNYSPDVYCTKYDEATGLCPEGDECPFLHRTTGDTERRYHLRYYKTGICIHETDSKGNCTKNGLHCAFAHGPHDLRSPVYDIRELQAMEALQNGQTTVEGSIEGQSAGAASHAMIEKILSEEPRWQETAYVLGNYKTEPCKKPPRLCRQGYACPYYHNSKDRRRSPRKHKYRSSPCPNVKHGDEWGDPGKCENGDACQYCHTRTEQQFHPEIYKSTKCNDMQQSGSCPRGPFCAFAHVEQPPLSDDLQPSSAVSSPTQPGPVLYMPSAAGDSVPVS
| Strand | bound/input enrichment [ratio] |
| --- | --- |
| CGAUUAGUUUAAGCUGUUUCAUGUAUUUUACUUUAAACCUUAUUUUGGCAACUUAUCUUGUCCGCAUUAUAAAAACUUACUUAAAAUACUAUUUUACUACAAAACAAAACAUUUAUUACA | 5.51 |
| CGCAACGUGAUCGUGGAGCGCAGGAACCUGAUCACCGUGUGCAGGUUCUCUGUGAAAACCCUGCCCGAGAAGUACACAGCAGAACCCAUUGAUGACUCUUCCGAGGAGUUUGUUAAUUUC | 0.0812 |
| ACCUGAGGACAUUCUGAGACUUCCUUUCUUCCAUUUUUUUUUUUUUUAAAGAGCCUGUGACCGUUGCUGUGGGCAGCCAGUUCCUGGGGCUUCCUCUUGGGCCCCCUGCACUCGGUCUCC | 0.762 |
| CCACGCUGUGGUUUCAGCAAGCAGAUGGUGGAAAUUCUUCACAAACAUAAUAUUCAGUUCCGCAGUUUUGAUAUCUUCUCAGAUGAAGAGGUUCGACAGGGACUCAAAGCCUAUUCCAGU | 0.107 |
| GAUGUCAGGACUAUCUUGCUCUCUAUCCAGAGCCUGCUAGGAGAACCCAACAUCGACCGCCCUUUGAACACACACGCUGCGGAACUCUGGAAAAACCCCACAGCAUUUAAGAAAUACCUG | 0.239 |
| GCUUCAAACUUGCAACGUGGAUUUCAUUUUUUUUUUUUUUUAAUUUAUUCUCUGGGAUCCCUCCGUAACCUGGCAUUGCUCAUUGCUCAUGAAUCCCUUAACAAUGGCGGAGCUGACGCG | 1.51 |
| AUCAGCUGGACAGAGCAGAACUAUCCUCAAGGUGGGAAGGAGAGUAAUAUGUCAACGUUAUCCGAAAGAGCUGUAGAAGCACUACAAGGAGAAAAACGAUAUUAUAGUGAUCCUCGAUUU | 0.268 |
| AUCAAAUACUUUGGGGACAUCAUUAGUGUGGGACAGAGACUGUUGCAAGGAGCUCGGAUCUCCGGGAUUCCAGUUAUCAUAACGGAACAAUACCCCAAAGGACUUGGCAGCACCGUUCAA | 0.193 |

Study 4 — method: universal PBM; molecule type: double-stranded DNA, one strand shown; sample: in vitro; concentration: not given; direction: higher = stronger binding
Target: Sal-like protein 4, full length isoform B (SALL4, Homo sapiens, UniProt Q9UJQ4-2, residues 1-616)
Setting: 8-mer, flanks averaged, mean of replicates
Construct (chain): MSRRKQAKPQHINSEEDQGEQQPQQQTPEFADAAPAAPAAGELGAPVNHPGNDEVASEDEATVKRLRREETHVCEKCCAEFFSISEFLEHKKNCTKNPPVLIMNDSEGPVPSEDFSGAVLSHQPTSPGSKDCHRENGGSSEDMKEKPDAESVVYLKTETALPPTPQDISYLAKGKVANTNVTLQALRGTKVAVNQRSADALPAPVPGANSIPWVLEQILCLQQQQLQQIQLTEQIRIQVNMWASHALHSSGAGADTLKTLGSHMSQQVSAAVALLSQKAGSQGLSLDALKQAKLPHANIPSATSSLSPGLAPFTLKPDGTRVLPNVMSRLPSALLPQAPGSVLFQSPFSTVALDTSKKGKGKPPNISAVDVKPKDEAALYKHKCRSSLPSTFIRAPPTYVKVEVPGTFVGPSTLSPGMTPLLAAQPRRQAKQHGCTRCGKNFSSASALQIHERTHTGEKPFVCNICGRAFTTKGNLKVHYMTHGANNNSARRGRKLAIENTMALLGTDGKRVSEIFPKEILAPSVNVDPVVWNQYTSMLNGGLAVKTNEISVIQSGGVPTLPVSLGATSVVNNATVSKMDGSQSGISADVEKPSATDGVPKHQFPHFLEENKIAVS
| Strand | E-score |
| --- | --- |
| ATGGCAAG | 0.0362 |
| GTGTGGCA | -0.157 |
| GTGGCTTA | 0.00025 |
| AGAGCTCG | -0.12 |
| AAACCGAG | -0.0387 |
| CCCCGTCA | -0.206 |
| TATGGCAA | 0.222 |
| CCCCGGAC | -0.303 |
| ATTAGAAC | 0.277 |
| CCCGTGAG | -0.278 |
| TCAACAAA | 0.145 |
| CGAAAGAC | -0.0416 |
| GGAGGGCC | -0.356 |
| AAAACGTT | 0.178 |
| AGGGTAAT | 0.0898 |
| CCAACGCG | -0.294 |
| ACATCCGA | -0.194 |
| ATAACCTA | 0.279 |

Study 5 — target: JDP2, bZIP domain (human); method: DHFR protein complementation; sample: yeast; baseline: wild-type JUN-FOS pair; direction: higher = stronger binding
Setting: single substitutions, most at no-binding floor
Starting sequence: JUN, bZIP domain (human); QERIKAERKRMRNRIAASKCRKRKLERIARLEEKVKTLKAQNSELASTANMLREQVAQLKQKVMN; partner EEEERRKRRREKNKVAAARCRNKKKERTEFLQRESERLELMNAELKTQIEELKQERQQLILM
| Variant | binding fitness [natural log] |
| --- | --- |
| A29K | 0.109 |
| E32Y | 0.0876 |
| A40S | 0.32 |
| L52E | -0.111 |
| L31E | 0.248 |
| E44L | 0.196 |
| V35K | -0.142 |
| K36R | 0.309 |
| Q55L | 0.168 |
| L38K | -0.0104 |
| R30D | 0.342 |
| E54L | 0.146 |
| K36V | 0.328 |
| L31R | 0.0143 |
| L45D | -0.0333 |
| M51E | 0.305 |
| V56R | -0.323 |
| V35C | 0.272 |

Some of these lines once more (study 1):
| Variant | relative binding score |
| --- | --- |
| D153K | -4.89% |
| T154L | -6.74% |
| F124S | 4.51% |
| D48M | -0.518% |
| E14W | -0.305% |
| K58M | -6.92% |
| S59I | 3.64% |
| H110D | 48.2% |
| I12C | 1.01% |
| I57G | 0.219% |
